Results gathered from unrelated publications.
Protocols differ between the studies behind these lines. ± marks the error that the study gave.
Organism: Plasmodium falciparum

CCCCCCCCc1cc(CN(Cc2ccccn2)Cc2ccccn2)c(O)c(CN(Cc2ccccn2)Cc2ccccn2)c1 — IC50 (growth, [3H]hypoxanthine incorporation; W2 chloroquine-resistant; 48 h): 527 ± 88 nM
CCCCNCC(O)Cn1c2ccc(Cl)cc2c2cc(Cl)ccc21 (stereo not shown) — IC50 (SYBR Green I; 3D7 chloroquine-sensitive; 72 h): 248 ± 32 nM
O=C1C(O)=C(CN2CCCC2)C(=O)c2ccccc21 — IC50 (parasite growth; W2; drug-resistant strain, blood stage): 14100 nM
CC[C@H](C)[C@@H]1NC(=O)[C@H](CCCCN)NC(=O)[C@H](CCCCN)NC(=O)[C@H](Cc2ccc(O)cc2)NC(=O)[C@H](CC(C)C)NC(=O)[C@@H]2CCCN2C(=O)[C@H](C)NC(=O)CNC(=O)CNC(=O)[C@H](CO)NC(=O)CNC(=O)CNC(=O)[C@H](CO)NC(=O)[C@H](CCCCN)NC(=O)[C@H](CC(C)C)NC(=O)[C@H](CC(C)C)NC(=O)[C@H](CCCCN)NC(=O)[C@H](CCCCN)NC(=O)[C@H]([C@@H](C)CC)NC(=O)[C@H]([C@@H](C)CC)NC(=O)[C@H](CCCCN)NC(=O)[C@H](CCCCN)NC(=O)[C@H](Cc2ccc(O)cc2)NC(=O)[C@H](CC(C)C)NC(=O)[C@@H]2CCCN2C(=O)[C@H](C)NC(=O)CNC(=O)CNC(=O)[C@H](CO)NC(=O)CNC(=O)CNC(=O)[C@H](CO)NC(=O)[C@H](CCC(=O)O)NC(=O)[C@H](CC(C)C)NC(=O)[C@H](CC(C)C)NC(=O)[C@H](CCCCN)NC(=O)[C@H](CCCCN)NC(=O)[C@H]([C@@H](C)CC)NC1=O — IC50 (parasite growth; 3D7; 72 h, 5% serum plus Albumax II): 9200 ± 1000 nM
Clc1ccc(C2=CC(c3ccc[nH]3)=NC2=CNC23CC4CC(CC(C4)C2)C3)cc1 — IC50 (parasite growth; Dd2, chloroquine-resistant): > 250 nM
Cc1ccc(C(C)C)cc1.Cn1ccnc1CNCCNc1ccnc2cc(Cl)ccc12.[Cl-].[Cl][Ru+] — IC50 (parasite growth, parasite lactate dehydrogenase; Dd2 chloroquine-resistant): 19700 ± 400 nM
COc1ccc2cc1Oc1cc3c(cc1OC)CCN(C)C3Cc1ccc(cc1)Oc1c(O)c(OC)cc3c1C(C2)N(C)CC3 (stereo not shown) — IC50 (parasite growth, SYBR green I; INDO): 470 ± 77.9 nM
COc1cccc2c(-c3ccc(O)c4c3CCNC4)ccc(O)c12 — IC50 (parasite growth, SYBR Green; W2; 96 h, drug-resistant strain, blood stage): 796 nM
CC[C@H](C)[C@@H]1NC(=O)[C@H](CCCCN)NC(=O)[C@H](CCCCN)NC(=O)[C@H](Cc2ccc(O)cc2)NC(=O)[C@H](CC(C)C)NC(=O)[C@@H]2CCCN2C(=O)[C@H](C)NC(=O)CNC(=O)CNC(=O)[C@H](CO)NC(=O)CNC(=O)CNC(=O)[C@H](CO)NC(=O)[C@H](CCC(=O)O)NC(=O)[C@H](CC(C)C)NC(=O)[C@H](CC(C)C)NC(=O)[C@H](CCCNC(=N)N)NC(=O)[C@H](CCCCN)NC(=O)[C@H]([C@@H](C)CC)NC(=O)[C@H]([C@@H](C)CC)NC(=O)[C@H](CCCCN)NC(=O)[C@H](CCCCN)NC(=O)[C@H](Cc2ccc(O)cc2)NC(=O)[C@H](CC(C)C)NC(=O)[C@@H]2CCCN2C(=O)CNC(=O)CNC(=O)[C@@H](NC(=O)CN)CSSC[C@@H](C(N)=O)NC(=O)[C@H](CC(C)C)NC(=O)[C@H](CCCNC(=N)N)NC(=O)[C@H](CCCCN)NC(=O)[C@H]([C@@H](C)CC)NC1=O — IC50 (parasite growth; 3D7; 72 h, 5% serum plus Albumax II): 10400 ± 700 nM
COC1=CC(c2ccc[nH]2)=NC12OC(C)CC1CCCCCCCc3ccc([nH]3)C12 (stereo not shown) — IC50 (parasite growth; DD2; drug-resistant strain, blood stage): 12 nM
Clc1ccc(C2=CC(c3ccc[nH]3)=NC2=CNC2CCCCCCC2)cc1 — IC50 (parasite growth; Dd2, chloroquine-resistant): 1140 nM
CC[C@H](C)[C@@H]1NC(=O)[C@H](CCCCN)NC(=O)[C@H](CCCCN)NC(=O)[C@H](Cc2ccc(O)cc2)NC(=O)[C@H](CC(C)C)NC(=O)[C@@H]2CCCN2C(=O)[C@H](C)NC(=O)CNC(=O)CNC(=O)[C@H](CO)NC(=O)CNC(=O)CNC(=O)[C@H](CO)NC(=O)[C@H](CCC(=O)O)NC(=O)[C@H](CC(C)C)NC(=O)[C@H](CC(C)C)NC(=O)[C@H](CCCCN)NC(=O)[C@H](CCCCN)NC(=O)[C@H](C(C)C)NC(=O)[C@H]([C@@H](C)CC)NC(=O)[C@H](CCCCN)NC(=O)[C@H](CCCCN)NC(=O)[C@H](Cc2ccc(O)cc2)NC(=O)[C@H](CC(C)C)NC(=O)[C@@H]2CCCN2C(=O)CNC(=O)CNC(=O)[C@@H](NC(=O)CN)CSSC[C@@H](C(N)=O)NC(=O)[C@H](CC(C)C)NC(=O)[C@H](CCCCN)NC(=O)[C@H](CCCCN)NC(=O)[C@H](C(C)C)NC1=O — IC50 (parasite growth; 3D7; 72 h, 5% serum plus Albumax II): ~45000 nM
CC1=CC(=CNC23CC4CC(CC(C4)C2)C3)N=C1c1ccc[nH]1 — IC50 (parasite growth; 7G8, chloroquine-resistant): 95 nM
C=CC1CN2CCC1CC2C(OC(=O)NCCCCCCNC(=O)OC(c1ccnc2ccc(OC)cc12)C1CC2CCN1CC2C=C)c1ccnc2ccc(OC)cc12 (stereo not shown) — IC50 (parasite growth, [3H]-hypoxanthine incorporation; HB3, chloroquine-sensitive): 298 ± 30.1 nM
CC1=CC(=CNC2CCCCCCC2)N=C1c1ccc[nH]1 — IC50 (parasite growth; 7G8, chloroquine-resistant): 1780 nM
CC1N=C(CCCCCCCCCCC2=CC(CCCCCCCCCCC3=NC(C)C(O)CC3)C3CCCN3C2)CCC1O (stereo not shown) — IC50 (pLDH; W2 chloroquine-resistant): 600 ± 5 ng/mL
COC1=CC(c2ccc[nH]2)=NC1=CNC1CCCCCC1 — IC50 (parasite growth; 7G8, chloroquine-resistant): 15 nM
C=C1[C@@H]([C@@]2(C)C=CC(=O)C(C)(C)[C@@H]2CC(=O)OC)[C@@H](OC(C)=O)[C@H](OC(C)=O)[C@@]2(C)[C@H](c3ccoc3)C[C@H]3O[C@]132 — IC50 ([3H]hypoxanthine incorporation; W2, chloroquine-resistant): 14400 ± 500 nM
CCC1=CC(c2ccc[nH]2)=NC1=CNC1CCCCCC1 — IC50 (parasite growth; Dd2, chloroquine-resistant): > 250 nM
O=C(O)[C@@H]1Cc2c([nH]c3ccccc23)[C@@H](c2ccc(Cl)cc2F)N1 — IC50 (parasite growth; Dd2; 72 h): 860 ± 80 nM
CC[C@H](C)[C@@H]1NC(=O)[C@H](CCCCN)NC(=O)[C@H](CCCCN)NC(=O)[C@H](Cc2ccc(O)cc2)NC(=O)[C@H](CC(C)C)NC(=O)[C@@H]2CCCN2C(=O)[C@H](C)NC(=O)CNC(=O)CNC(=O)[C@H](CO)NC(=O)CNC(=O)CNC(=O)[C@H](CO)NC(=O)[C@H](CCC(=O)O)NC(=O)[C@H](CC(C)C)NC(=O)[C@H](CC(C)C)NC(=O)[C@H](CCCCN)NC(=O)[C@H](CCCCN)NC(=O)[C@H]([C@@H](C)CC)NC(=O)[C@H]([C@@H](C)CC)NC(=O)[C@H](CCCCN)NC(=O)[C@H](CCCCN)NC(=O)[C@H](Cc2ccc(O)cc2)NC(=O)[C@H](CC(C)C)NC(=O)[C@@H]2CCCN2C(=O)[C@H](C)NC(=O)CNC(=O)CNC(=O)[C@H](CO)NC(=O)CNC(=O)CNC(=O)[C@H](CO)NC(=O)[C@H](CCC(=O)O)NC(=O)[C@H](CC(C)C)NC(=O)[C@H](CC(C)C)NC(=O)[C@H](CCCCN)NC(=O)[C@H](CCCCN)NC(=O)[C@H]([C@@H](C)CC)NC1=O — IC50 (parasite growth; 3D7; 72 h, 5% serum plus Albumax II): 9000 ± 1300 nM
CCC1=C(C)C(=CNC2CCCCCCC2)N=C1c1ccc[nH]1 — IC50 (parasite growth; 7G8, chloroquine-resistant): 75 nM

For quick reference, copied from above:
Clc1ccc(C2=CC(c3ccc[nH]3)=NC2=CNC2CCCCCCC2)cc1 — IC50 (parasite growth; Dd2, chloroquine-resistant): 1140 nM
Clc1ccc(C2=CC(c3ccc[nH]3)=NC2=CNC23CC4CC(CC(C4)C2)C3)cc1 — IC50 (parasite growth; Dd2, chloroquine-resistant): > 250 nM
